Results pooled from the literature.
Each line is one published result; not all experiments were run side by side. “And” joins repeats or separate records; there may be more than shown. ± marks the error that the study gave.
Glutamate receptor 2: Glutamate receptor 2 (Homo sapiens, UniProt P42262)
RORC: Nuclear receptor ROR-gamma (RORC, Homo sapiens, UniProt P51449)
WD repeat-containing protein 91 WD40 domain, residues 392–747: WD repeat-containing protein 91, WD40 domain, residues 392–747 (Homo sapiens, UniProt A4D1P6)
Genome polyprotein NS3 helicase domain: Genome polyprotein, NS3 helicase domain (Hepatitis C virus genotype 1b, UniProt Q9WMX2)
ESR1: Estrogen receptor (ESR1, Homo sapiens, UniProt P03372)
CALM1 Ca2+-bound N-lobe: Calmodulin-1, Ca2+-bound N-lobe (CALM1, Homo sapiens, UniProt P0DP23)
NAA80: N-alpha-acetyltransferase 80 (NAA80, Homo sapiens, UniProt Q93015)

O=C1NC(=O)C(c2ccccc2)(c2ccccc2)N1 — potentiation (Glutamate receptor 2; ion current, positive allosteric modulator, SyncroPatch patch clamp; HEK293; 10 µM): 91%
CCCCCCCCC(=O)c1cc(O)c(O)c(O)c1 — activation (RORC; reporter gene, Gal4 hybrid reporter; 10 µM; reference: vehicle): 0.87 fold
N#CC1CCN(C(=O)c2ccc(CNc3cccc4c3CCCC4)cc2)CC1 — binding (WD repeat-containing protein 91 WD40 domain, residues 392–747; SPR; 45 µM): 30% and 55%
CC(C)NCC(O)COc1cccc2ccccc12 (stereo not shown) — activation (Glutamate receptor 2; ion current, agonist, SyncroPatch patch clamp; HEK293; 30 µM): 6%
N#CC1CCN(C(=O)c2ccc(CSc3cc(Cl)ccc3Cl)cc2)CC1 — SPR response (WD repeat-containing protein 91 WD40 domain, residues 392–747; binding, SPR single-concentration screen; 45 µM): 11.3 RU and 14.2 RU
CC[C@H](C)[C@H](NC(=O)[C@H](CCC(=O)O)NC(=O)[C@H](CCC(=O)O)NC(=O)[C@@H]1CCCN1C(=O)[C@H](CC(=O)O)NC(=O)[C@H](C)NC(=O)[C@H](CCC(N)=O)NC(=O)[C@@H](NC(=O)[C@H](C)NC(=O)[C@@H](NC(=O)[C@H](CO)NC(=O)[C@@H](NC(=O)[C@H](CCCCN)NC(=O)[C@@H](N)Cc1ccc(O)cc1)[C@@H](C)O)C(C)C)[C@@H](C)O)C(=O)N[C@H](C(=O)N[C@H](C(=O)N[C@@H](CC(C)C)C(=O)N[C@@H](CC(=O)O)C(=O)N[C@@H](CC(=O)O)C(=O)N[C@@H](CC(=O)O)C(=O)N[C@@H](CC(=O)O)C(=O)O)C(C)C)[C@@H](C)CC — enthalpy change (ΔH) (Small ubiquitin-related modifier 2 (Homo sapiens, UniProt P61956, C48A); isothermal titration calorimetry; concentration not given, pH 7.4, SUMO2 construct): 2.12 ± 0.23 kcal/mol
NS(=O)(=O)C#Cc1ccccc1 — inhibition (Genome polyprotein NS3 helicase domain; DNA binding, inhibitor; hepatitis C virus; 100 µM, together with: Cy5-dT15 DNA): 0%
COc1ccc(C(=O)N2CCC(C#N)CC2)cc1OC1CCN(C)CC1 — binding (WD repeat-containing protein 91 WD40 domain, residues 392–747; SPR; 45 µM): -15% and -6%
CCCCCCCCCCCc1ccc([C@H]2CC[C@H]([N+](C)(C)CCC)CC2)cc1.[I-] — Ki/Km ratio (SPHK1 (Homo sapiens, UniProt Q9NYA1); inhibitor, radiometric flash-plate; cell lysate; together with: sphingosine 10 µM): 1.5
CCN(CC)CCn1c(=O)c(Cc2ccc(OC)cc2)nc2ccccc21.Cl — inhibition (Genome polyprotein NS3 helicase domain; DNA binding, inhibitor; hepatitis C virus; 100 µM, together with: Cy5-dT15 DNA): 0%
COc1cc(O)c2c(=O)cc(-c3ccc(O)cc3)oc2c1 — selectivity ratio (ESR1; array formation; PRL-HeLa; reference: EC50 ERβ over EC50 ERα): 0.745
COc1ccc(F)cc1C(=O)NCc1ccc(-c2nn([C@@H](C)C(F)(F)F)c(N)c2C(N)=O)cc1 — remaining activity (FGFR2 (Homo sapiens, UniProt P21802); kinase activity, inhibitor, HotSpot radiometric; 1000 nM, together with: ATP at Km): 78.7 ± 11.7%
O=C(O)C1CCCNC1 (stereo not shown) — normalised MST signal (SLC6A6 (Homo sapiens, UniProt P31641, Y138A); binding, microscale thermophoresis; 62.5 µM, room temperature, together with: 50 nM labelled protein; higher = more binding): 0.64
CC[C@H](C)[C@H](NC(=O)[C@H](CCCCN)NC(=O)CNC(=O)[C@@H](NC(=O)[C@@H](NC(=O)[C@H](CCSC)NC(=O)[C@H](Cc1c[nH]cn1)NC(=O)CN)[C@@H](C)O)C(C)C)C(=O)N[C@@H](Cc1ccc(O)cc1)C(=O)N[C@@H](C)C(=O)N[C@@H](C)C(=O)N[C@@H](CCSC)C(=O)N[C@@H](CCSC)C(=O)N[C@H](C(=O)N[C@@H](CCSC)C(=O)N[C@@H](CCC(=O)O)C(=O)N[C@@H](C)C(=O)N[C@@H](Cc1ccc(O)cc1)C(=O)N[C@@H](CCCNC(=N)N)C(=O)N[C@@H](CCC(N)=O)C(=O)N[C@@H](CO)C(=O)N[C@@H](CCCCN)C(=O)N[C@@H](C)C(=O)N[C@@H](CCCCN)C(=O)N[C@@H](CCCCN)C(=O)N[C@@H](CC(C)C)C(=O)N[C@@H](CCC(N)=O)C(=O)N[C@@H](C)C(=O)N[C@@H](CCSC)C(=O)N[C@@H](CCCNC(=N)N)C(=O)O)[C@@H](C)CC — stoichiometry (CALM1 Ca2+-bound N-lobe; binding, isothermal titration calorimetry; pH 7.4, 15 °C, N-lobe, CaV2.1 IQ domain, together with: Ca2+): 0.95 ± 0.19
C=CC(=O)N1CCC(COCC(=O)N2CCN(c3nc(-c4cnc(N)nc4C(F)F)nc(N4CCOC[C@@H]4C)n3)CC2)CC1 — remaining binding (WEE1 (Homo sapiens, UniProt P30291); KINOMEscan; 1 µM): 98%
CCOc1ccc2c(-c3cc(C)nc(Nc4cc(OC)cc(C(F)(F)F)c4)n3)cnn2n1 — binding (HIPK2 (Homo sapiens, UniProt Q9H2X6); NanoBRET target engagement; live cells; concentration not given, no binding): no binding
NCCCCC(NC(=O)CNC(=O)Cc1ccccc1)C(=O)O (stereo not shown) — product formation (NAA80; substrate, DTNB; 2 mM, 30 min, 37 °C, together with: acetyl-CoA 500 µM): 1.84 µM
CC[C@H](C)[C@H](NC(=O)[C@H](C)NC(=O)[C@H](CCSC)NC(=O)[C@H](C)NC(=O)[C@H](C)NC(=O)[C@H](Cc1ccc(O)cc1)NC(=O)[C@@H](NC(=O)[C@H](CCCCN)NC(=O)CNC(=O)[C@@H](NC(=O)[C@@H](NC(=O)[C@H](CCSC)NC(=O)[C@H](Cc1c[nH]cn1)NC(=O)CN)[C@@H](C)O)C(C)C)[C@@H](C)CC)C(=O)N[C@@H](CCSC)C(=O)N[C@@H](CCC(=O)O)C(=O)N[C@@H](Cc1ccc(O)cc1)C(=O)N[C@@H](Cc1ccc(O)cc1)C(=O)N[C@@H](CCCNC(=N)N)C(=O)N[C@@H](CCC(N)=O)C(=O)N[C@@H](CO)C(=O)N[C@@H](CCCCN)C(=O)N[C@@H](C)C(=O)N[C@@H](CCCCN)C(=O)N[C@@H](CCCCN)C(=O)N[C@@H](CC(C)C)C(=O)N[C@@H](CCC(N)=O)C(=O)N[C@@H](C)C(=O)N[C@@H](CCSC)C(=O)N[C@@H](CCCNC(=N)N)C(=O)O — ΔH (Calmodulin-1, Ca2+-bound C-lobe (CALM1, Homo sapiens, UniProt P0DP23); binding, isothermal titration calorimetry; pH 7.4, 15 °C, C-lobe, CaV2.1 IQ domain, together with: Ca2+): -2.4 ± 0.56 kcal/mol
Nc1ncnc2c1ncn2[C@@H]1O[C@H](COP(=O)(O)CP(=O)(O)OP(=O)(O)O)[C@@H](O)[C@H]1O — specific binding (P2X purinoceptor 1 (P2RX1, Homo sapiens, UniProt P51575, L218T); saturation binding; HEK293; 13 nM): 978 CCPM and 1000 CCPM
COc1cc2nccc(Oc3ccc(NC(=O)c4cc5c(n(-c6ccccc6)c4=O)CCCC5=O)nc3)c2cc1OC — plasma inhibitory activity (MERTK (Homo sapiens, UniProt Q12866); inhibitor; human patients; 10 mg daily, monotherapy): 80 to 100%
CN(C)CCC(c1ccc(Br)cc1)c1ccccn1.O=C(O)/C=C\C(=O)O (racemic) — inhibition (Genome polyprotein NS3 helicase domain; DNA binding, inhibitor; hepatitis C virus; 100 µM, together with: Cy5-dT15 DNA): 0%
NCCCCNCCCN — product formation (NAA80; substrate, DTNB; 2 mM, 30 min, 37 °C, together with: acetyl-CoA 500 µM): -0.7 µM
O=C(COP(=O)(O)O)[C@@H](O)[C@H](O)[C@H](O)COP(=O)(O)O — thermal stability ratio (RAN (Homo sapiens, UniProt P62826); thermal proteome profiling; HepG2 cell lysate; concentration not given, 57 over 37 °C, mean; reference: compound over control): 0.534
CC[C@H](C)[C@H](NC(=O)[C@H](CCSC)NC(=O)[C@H](CCSC)NC(=O)[C@H](C)NC(=O)[C@H](C)NC(=O)[C@H](Cc1ccc(O)cc1)NC(=O)[C@@H](NC(=O)[C@H](CCCCN)NC(=O)CNC(=O)[C@@H](NC(=O)[C@@H](NC(=O)[C@H](CCSC)NC(=O)[C@H](Cc1c[nH]cn1)NC(=O)CN)[C@@H](C)O)C(C)C)[C@@H](C)CC)C(=O)N[C@@H](C)C(=O)N[C@@H](CCC(=O)O)C(=O)N[C@@H](Cc1ccc(O)cc1)C(=O)N[C@@H](Cc1ccc(O)cc1)C(=O)N[C@@H](CCCNC(=N)N)C(=O)N[C@@H](CCC(N)=O)C(=O)N[C@@H](CO)C(=O)N[C@@H](CCCCN)C(=O)N[C@@H](C)C(=O)N[C@@H](CCCCN)C(=O)N[C@@H](CCCCN)C(=O)N[C@@H](CC(C)C)C(=O)N[C@@H](CCC(N)=O)C(=O)N[C@@H](C)C(=O)N[C@@H](CCSC)C(=O)N[C@@H](CCCNC(=N)N)C(=O)O — stoichiometry (CALM1 Ca2+-bound N-lobe; binding, isothermal titration calorimetry; pH 7.4, 15 °C, N-lobe, CaV2.1 IQ domain, together with: Ca2+): 1.16 ± 0.18
CCCCCCSC[C@H]1CN(Cc2c[nH]c3c(N)ncnc23)C[C@@H]1O — k3 (Aminodeoxyfutalosine nucleosidase (Helicobacter pylori, UniProt Q9ZMY2); forward isomerization rate): 1.3 ± 0.6 min⁻¹
O=C(NC1CCCS(=O)(=O)c2ccccc21)c1ccc2nc(O)cnc2c1 (stereo not shown) — SPR response (WD repeat-containing protein 91 (Homo sapiens, UniProt A4D1P6); binding, SPR steady state; 3.75 µM): 20.6 RU
O=O — Km (HIF1AN (Homo sapiens, UniProt Q9NWT6, E105A); substrate, MALDI-TOF MS; pH 7.00, 37.0 °C, mutant E105A, together with: CTAD peptide 80 µM, 2-oxoglutarate 100 µM): 250 ± 44 µM
CCOc1ccc(NC(=O)O[C@@H](Cn2nc(C(C)C)cc2C(C)C)C(C)C)cc1 — increase in ACh efficacy (Neuronal acetylcholine receptor; alpha4/beta2 (Homo sapiens, UniProt P17787+P43681); two-electrode voltage clamp; Xenopus oocytes; 1 µM, low-sensitivity stoichiometry): ~5 fold
COc1cc(/C=C2\CC/C(=C\c3ccc(O)c(OC)c3)C2=O)ccc1O — ΔS (haemin; binding, isothermal titration calorimetry; pH 7.4, 37 °C): -194.2 ± 0.14 J/(mol·K)
C=CC1=C(C)c2cc3[nH]c(cc4nc(cc5[nH]c(cc1n2)c(C)c5CCC(=O)O)C(CCC(=O)O)=C4C)c(C)c3C=C — inhibition (Genome polyprotein NS3 helicase domain; DNA binding, inhibitor; hepatitis C virus; 100 µM, together with: Cy5-dT15 DNA): 140%
COc1ccccc1N(C)S(=O)(=O)c1ccc(C(=O)N2CCC(C#N)CC2)cc1 — SPR response (WD repeat-containing protein 91 WD40 domain, residues 392–747; binding, SPR single-concentration screen; 45 µM): -0.8 RU and -1.3 RU
CC(=C/C(=O)O)/C=C/C=C(\C)C1C=C2C(C)(C)CCCC2(C)O1 (stereo not shown) — plasma membrane localization (Rhodopsin (RHO, Homo sapiens, UniProt P08100, P23H); immunostaining, refers to: opsin; COS-7 transfected; 5.00 µM, unit not given; reference: surface over total stained cells): 0.51
COc1ccc(CCCOC(Cn2ccnc2)c2ccc(OC)cc2)cc1 (stereo not shown) — inhibition (Genome polyprotein NS3 helicase domain; DNA binding, inhibitor; hepatitis C virus; 100 µM, together with: Cy5-dT15 DNA): 0%
CC1CCCN(C(=O)c2cc3ncccn3n2)C1 (stereo not shown) — fold enrichment (Transducin-like enhancer protein 4 (TLE4, Homo sapiens, UniProt Q04727); binding, affinity selection mass spectrometry; reference: other proteins in batch): 1.15
Cc1ccccc1-c1cc(C(=O)N2CCN(c3cccc(C(F)(F)F)c3)CC2)c2ccccc2n1 — activity class (RORC; cell-based; concentration not given): active
Nc1ncnc2c1ncn2[C@@H]1O[C@H](COP(=O)(O)OP(=O)(O)O)[C@@H](O)[C@H]1O — ΔH (GUK1 (Homo sapiens, UniProt Q16774); binding, isothermal titration calorimetry; molar ratio 3.279, fitted curve): -0.13 kcal/mol
CC(C)=CCc1cc2c(cc1O)O[C@H](c1ccc(O)cc1)CC2=O — selectivity ratio (ESR1; array formation; PRL-HeLa; reference: EC50 ERβ over EC50 ERα): 59.8
NC(=O)c1cccc(C#CCN(CC[C@H](N)C(=O)O)C[C@H]2O[C@@H](n3cnc4c(N)ncnc43)[C@H](O)[C@@H]2O)c1 — Tagg shift (7SK snRNA methylphosphate capping enzyme (MEPCE, Homo sapiens, UniProt Q7L2J0); cellular thermal shift; HeLa cell lysate; 50 µM; reference: DMSO): no effect
Brc1ccc([C@H]2CN3CCSC3=N2)cc1.O=C(O)C(=O)O — inhibition (Genome polyprotein NS3 helicase domain; DNA binding, inhibitor; hepatitis C virus; 100 µM, together with: Cy5-dT15 DNA): 0%
CCN1CCC[C@H]1CNC(=O)c1c(O)c(Cl)cc(Cl)c1OC — log2 fold change (LPAR5 (Homo sapiens, UniProt Q9H1C0); β-arrestin recruitment, TANGO luminescence, refers to: GPR92; concentration not given; reference: basal luminescence): 0.373
